Experimental data from different studies.
Parts stem from different laboratories: compare values within a part only.

Study 1
Target: RNA binding protein fox-1 homolog 2, RRM domain, GST-SBP tag (RBFOX2, Homo sapiens, UniProt O43251-10, residues 100-194)
Method: RNA Bind-n-Seq
Molecule type: RNA
Sample: in vitro
Tested at: 365 nM
Setting: natural RNA segment, single round, ends assumed
Relative to: no-protein control
Reading: higher = stronger binding
Quantity: RBNS enrichment (R)
Shared flanks, not repeated: GGGAGUUCUACAGUCCGACGAUC … UGGAAUUCUCGGGUGCCAA
Sequence = UCAUGAGUUUCUCAGAAACAUGUUUUUAACAAUUGUACUAUUUAGUCAUUGUCCAUUUACUAUAAUUUAUCUGACCAUUUCCCUACUGUAAAAUACUUAAGACGGUUUCU; value = 0.376
Sequence = GUUUUUCAAUAUAUGAACUUUUGUAUGGAAUUUUUUUGUAAUAAGUGAUCAAGGUUACAAAUUUUUUUUUUAAAUAGAAAAGAGAAGAAAAACGUUGUAAGAAGGCAAUA; value = 0.887
Sequence = CUAAGGAUGAUAUUGGAAUGCACCAGCCCUCACAUGUGUAUGCACAUUUGCCAGAAUAUAAGAGUUUUGUUUUAAAUACAGUCUUGUUAGGAUUUUACGUUAUUGUUAUU; value = 0.901
Sequence = CCAGAGCCCACGAGGCUUGCAGAUCGGGGGCAUAGGAAUUUGGAAUCCAAGAGCUAUAAUUUUUAAAAAAAAAAAUCUUUUAUUUUAAUACAUUGUAGGAAAUCUUCAUA; value = 0.728
Sequence = GGCUUCGUGUGCCUGUUGGACCAUUAGUUCUUUUAACUGUAUAUGCAAUAACAAGGUUUUAAAAGAUAAUAAUAAAGAGGAAACACGACUAUUGGACAAAGUAUUUAUGU; value = 1.03
Sequence = GGCCCCCACCCCUCCUGCCAACCAGCACACUACAUACACUACUAUAGAAACACUACAGGUGUGUGCACACAGCACUCAGGUUGGCAUGUUUGGUGUUGAAAUGGGGUCAU; value = 0.409
Sequence = ACAGGGAAGACAUUACACUAGUUGAGGCUACCGAACCUUACAUUUUGCUAGAGCUCAAGUAAUAGAAACUUAGUUUCAGAAUCCUGAAUUCAGCACCUAUUUUGAAUUAA; value = 0.517
Sequence = AACUAAUUUUUGGCUUAAGUCAGAACAACUGGCCAAAAUUGAAGUCAUAUUUGAGGGGGGAAAUGGCAUACGCAAUAUUAUAUUAUAUUGGAUAUUUAUGUUCACACAGG; value = 0.42

Study 2
Target: Interferon regulatory factor 5, full length, phosphomimetic (IRF5, Homo sapiens, UniProt Q13568-2, residues 1-514, S451D/S453D/S456D/S462D)
Method: protein-binding microarray
Molecule type: double-stranded DNA, one strand shown
Sample: in vitro
Tested at: 940 nM top
Setting: 60-bp whole probe
With: salmon DNA 0.4 mg/ml
Relative to: random background probes
Reading: higher = stronger binding
Quantity: fitted relative affinity
Shared flanks, not repeated: GCCTAGCAC … GTCTTGATTCGCTTGACGCTGCTG
Sequence = TCAAAGATTCCTCTCACACTGTGCTAG; value = 0.416 z-score
Sequence = GACGAACTGGGGTTTCGAGATGTGCTA; value = 1.93 z-score
Sequence = GATGATTTCAGTTCCGAGACGTGCTAG; value = 0.974 z-score
Sequence = TTAGGACTGGACTTTCGGGTAGTGCTA; value = 0.851 z-score
Sequence = GACGGTTTCGACTATCGGGCCGTGCTA; value = 8.35 z-score
Sequence = GACGGTTTCCTCATCCTGACGTGCTAG; value = 0.88 z-score
Sequence = GCCTTTTTTTTTTTTTCTGAGTGCTAG; value = 1.61 z-score
Sequence = GACGATCTGGGGTTTCGAGACGTGCTA; value = 2.44 z-score
Sequence = GACGATATCACTATCGAGACGTGCTAG; value = 0.338 z-score
Sequence = GACGGTCTCCTTACCCTGACGTGCTAG; value = 0.274 z-score
Sequence = TCAACAGTTTTATTTTAGACTGTGCTA; value = 0.694 z-score
Sequence = TTGGGTTTCCTTTTCCTTTAGTGCTAG; value = 1.64 z-score
Sequence = TTAGGACTGGGTTTAGGTTAGTGCTAG; value = -0.166 z-score
Sequence = GACGATATCAGGTTCGAGACGTGCTAG; value = -0.267 z-score
Sequence = TTAGATTTCAGTTTTGATTAGTGCTAG; value = 1.74 z-score
Sequence = GTAGGTTTCCTTCTCCTTTAGTGCTAG; value = 1.95 z-score
Sequence = TTAAGACTGGGTCTCGGTTAGTGCTAG; value = 1.2 z-score
Sequence = TTAGGTCCCGGACTGGGTTAGTGCTAG; value = -0.654 z-score
Sequence = GACGGTTTCGGTCTTGGGACGTGCTAG; value = 12.3 z-score

Study 3
Target: Histone acetyltransferase KAT6A, winged helix 2, GST fusion (KAT6A, Homo sapiens, UniProt Q92794, residues 85-181)
Method: protein binding microarray
Molecule type: double-stranded DNA, one strand shown
Sample: in vitro
Tested at: not given
Setting: 8-mer, flanks averaged, mean of 2 arrays, mostly near background
Relative to: not given
Reading: higher = stronger binding
Quantity: E-score
Target sequence (chain): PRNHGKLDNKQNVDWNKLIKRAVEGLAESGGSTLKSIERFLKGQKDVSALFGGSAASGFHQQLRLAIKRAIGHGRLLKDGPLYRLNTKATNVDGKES
Sequence = ACCCTCGT; value = 0.132
Sequence = CACCGCGC; value = 0.208
Sequence = AGTCACGG; value = 0.0299
Sequence = CGTCCTTC; value = -0.00886
Sequence = ACTGTACA; value = -0.214
Sequence = CGGCAAGA; value = 0.1
Sequence = AGCGTATA; value = -0.0489
Sequence = GCTGCACA; value = -0.0296
Sequence = TCAGCAGA; value = 0.137
Sequence = AGCCGGCA; value = 0.164
Sequence = TATGCTAA; value = 0.0188
Sequence = AGTCCCTA; value = -0.224
Sequence = AGAACTGG; value = 0.0892
Sequence = CTACCACA; value = -0.0828
Sequence = GACCGAAA; value = 0.141
Sequence = TAAATATA; value = 0.139
Sequence = AAAAGAGA; value = 0.0243
Sequence = CTTGAATC; value = 0.0346
Sequence = TGCGAGCA; value = 0.0445
Sequence = AAATCGGA; value = 0.113
Sequence = CGAATGTA; value = -0.15
Sequence = GACACGCA; value = 0.178
Sequence = AGACACGA; value = -0.0611
Sequence = AAGGGCAG; value = -0.0416
Sequence = CAGACCTA; value = -0.0266

Study 4
Target: RING finger protein unkempt homolog, zinc fingers 1-6, SBP tag (UNK, Homo sapiens, UniProt Q9C0B0, residues 30-357)
Chain of UniProt Q9C0B0 (30-357, looked up): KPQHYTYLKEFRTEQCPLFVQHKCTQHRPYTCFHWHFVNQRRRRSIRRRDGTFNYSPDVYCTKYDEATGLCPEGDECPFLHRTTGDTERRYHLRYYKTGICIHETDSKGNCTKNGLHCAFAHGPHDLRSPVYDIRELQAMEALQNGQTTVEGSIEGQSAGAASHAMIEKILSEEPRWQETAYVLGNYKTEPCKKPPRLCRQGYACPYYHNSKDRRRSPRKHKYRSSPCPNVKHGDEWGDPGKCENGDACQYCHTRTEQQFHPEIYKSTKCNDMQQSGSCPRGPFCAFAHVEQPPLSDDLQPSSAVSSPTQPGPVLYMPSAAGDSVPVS
Method: RNA Bind-n-Seq
Molecule type: RNA
Sample: in vitro
Tested at: 100 nM
Setting: RNA with constant flanks, vertebrate orthologous sites, ends assumed
Relative to: input RNA pool
Reading: higher = stronger binding
Quantity: bound/input enrichment
Shared flanks, not repeated: GGGAGUUCUACAGUCCGACGAUC … CAACAGAGGAUUGAGCAUCA
Sequence = UACUUCUGGUGAUAUUUGGCCUGGCCUUUCAGCUUAUGAUAAUAGUCCAAGGUCACCUCAUAGUCCUUCACCUAUUGCUACACCACCCAGUCAGAGUUCAUCAUGCUCAGAUGCCCCCAU; value = 0.819 ratio
Sequence = UGAAAAUAACUUCUGUUCCAUUGAGACUAAAAAUAGUCCCAUAAAUAGAAAACUCCUAAGUAACUUUUUUAAAUAAAAAACAUUAAAUUUUGUAAAUCACCUGCUGCCACAAUACAACUG; value = 0.983 ratio
Sequence = AUUUUUUAAAGUUUUUUUAAUUUAAUUUUUCCUUUUGGGGGUAAAGUUUGCUCUACCAAAUAGUGAUCGUAACAAAUUGAUCUGUUUUGGAUGUUGCUAUAGUGACAUGCAGUUAUAUAU; value = 0.43 ratio
Sequence = AGUUAUAGCAAAAGAGCCAAGCAGUAGUCUUGUGGGGUUUUCUGUAAAUGUAAAAAUACUUAGAUCCAGACUUUGUUUCCUUCUUCAAUUUCAAAAAUAAAAAAUACCUCAGUGCUAUGU; value = 0.643 ratio
Sequence = AGUCAAUGGAAUUACAUAAUACUGAAGUUGCAGUUGAAAGGGUAUCCCAGUAUGUGUUGAUAGUUACUGAAGGAAUUAGAGCUGGUGUUGCCUUGUAUUUUAGCCCUUGUUUCAGGUUUU; value = 0.398 ratio

Some of these lines once more (study 3):
Sequence = AAATCGGA; value = 0.113
Sequence = CGAATGTA; value = -0.15
Sequence = GACACGCA; value = 0.178
